Published values of several laboratories.
± gives the spread as reported.
Uncharacterized protein: Uncharacterized protein (Trypanosoma cruzi, UniProt Q4DRC3)
cathepsin L: cathepsin L (Capra hircus, UniProt A0A452FFI6)
HTR6: 5-hydroxytryptamine receptor 6 (HTR6, Homo sapiens, UniProt P50406)
Sequence of UniProt P50406 (whole entry, looked up): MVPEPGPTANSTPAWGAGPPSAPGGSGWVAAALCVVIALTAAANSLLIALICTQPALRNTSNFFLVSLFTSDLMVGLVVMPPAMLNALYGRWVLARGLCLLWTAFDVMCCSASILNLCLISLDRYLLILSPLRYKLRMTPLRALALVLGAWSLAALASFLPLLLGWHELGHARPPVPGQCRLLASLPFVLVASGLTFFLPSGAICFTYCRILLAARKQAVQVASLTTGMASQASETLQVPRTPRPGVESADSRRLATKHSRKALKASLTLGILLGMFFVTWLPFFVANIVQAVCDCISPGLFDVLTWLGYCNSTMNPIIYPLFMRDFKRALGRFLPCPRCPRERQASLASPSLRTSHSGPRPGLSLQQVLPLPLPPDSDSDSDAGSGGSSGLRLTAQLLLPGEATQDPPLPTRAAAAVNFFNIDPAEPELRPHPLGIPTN
KDM1A: Lysine-specific histone demethylase 1A (KDM1A, Homo sapiens, UniProt O60341)
CHRM2: Muscarinic acetylcholine receptor M2 (CHRM2, Homo sapiens, UniProt P08172)
Sequence of UniProt P08172 (whole entry, looked up): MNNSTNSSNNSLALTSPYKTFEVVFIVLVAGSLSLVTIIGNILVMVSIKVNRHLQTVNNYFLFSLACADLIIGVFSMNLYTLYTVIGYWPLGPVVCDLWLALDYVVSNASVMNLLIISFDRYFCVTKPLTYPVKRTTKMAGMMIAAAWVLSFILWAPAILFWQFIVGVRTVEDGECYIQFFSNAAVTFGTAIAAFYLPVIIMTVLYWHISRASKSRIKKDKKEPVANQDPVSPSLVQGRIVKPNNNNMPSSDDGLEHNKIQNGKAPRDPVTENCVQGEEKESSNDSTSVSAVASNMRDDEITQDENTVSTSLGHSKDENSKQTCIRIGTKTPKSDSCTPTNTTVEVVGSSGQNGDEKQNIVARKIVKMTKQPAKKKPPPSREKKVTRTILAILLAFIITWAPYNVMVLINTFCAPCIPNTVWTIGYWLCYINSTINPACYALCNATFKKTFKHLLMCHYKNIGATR
CASP9: Caspase-9 (CASP9, Homo sapiens, UniProt P55211)
Sequence of UniProt P55211 (whole entry, looked up): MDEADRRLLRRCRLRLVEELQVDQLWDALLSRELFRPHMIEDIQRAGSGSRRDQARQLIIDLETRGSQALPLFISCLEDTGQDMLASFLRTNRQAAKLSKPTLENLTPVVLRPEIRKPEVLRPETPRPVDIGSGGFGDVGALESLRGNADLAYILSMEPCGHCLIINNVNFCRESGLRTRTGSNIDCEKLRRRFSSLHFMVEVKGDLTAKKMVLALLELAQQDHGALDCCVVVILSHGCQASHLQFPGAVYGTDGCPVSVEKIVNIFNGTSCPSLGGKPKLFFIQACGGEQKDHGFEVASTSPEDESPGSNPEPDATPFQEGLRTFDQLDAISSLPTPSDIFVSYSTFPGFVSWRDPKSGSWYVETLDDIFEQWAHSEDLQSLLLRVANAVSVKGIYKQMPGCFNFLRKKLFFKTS
Sequence of UniProt P51692 (whole entry, looked up): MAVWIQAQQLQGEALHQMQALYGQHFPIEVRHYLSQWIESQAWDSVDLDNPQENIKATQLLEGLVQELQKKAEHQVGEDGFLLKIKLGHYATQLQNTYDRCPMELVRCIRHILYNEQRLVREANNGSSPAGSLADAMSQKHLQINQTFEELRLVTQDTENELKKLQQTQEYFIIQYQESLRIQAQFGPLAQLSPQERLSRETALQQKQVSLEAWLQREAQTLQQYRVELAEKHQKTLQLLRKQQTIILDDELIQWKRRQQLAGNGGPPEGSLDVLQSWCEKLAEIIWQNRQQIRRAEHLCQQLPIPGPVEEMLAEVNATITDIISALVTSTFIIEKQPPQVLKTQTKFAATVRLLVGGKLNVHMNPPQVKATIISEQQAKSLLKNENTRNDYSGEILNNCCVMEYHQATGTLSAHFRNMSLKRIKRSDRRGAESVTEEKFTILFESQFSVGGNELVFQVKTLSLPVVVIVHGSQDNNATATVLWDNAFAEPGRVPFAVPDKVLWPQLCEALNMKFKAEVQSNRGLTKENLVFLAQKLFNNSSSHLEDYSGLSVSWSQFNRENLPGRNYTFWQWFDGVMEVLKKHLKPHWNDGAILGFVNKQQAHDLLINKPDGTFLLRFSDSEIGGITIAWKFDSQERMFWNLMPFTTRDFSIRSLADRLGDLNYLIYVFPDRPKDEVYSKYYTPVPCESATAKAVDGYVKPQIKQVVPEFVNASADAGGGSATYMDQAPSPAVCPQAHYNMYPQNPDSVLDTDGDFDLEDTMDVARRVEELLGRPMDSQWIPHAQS
Sequence of UniProt P30958 (whole entry, looked up): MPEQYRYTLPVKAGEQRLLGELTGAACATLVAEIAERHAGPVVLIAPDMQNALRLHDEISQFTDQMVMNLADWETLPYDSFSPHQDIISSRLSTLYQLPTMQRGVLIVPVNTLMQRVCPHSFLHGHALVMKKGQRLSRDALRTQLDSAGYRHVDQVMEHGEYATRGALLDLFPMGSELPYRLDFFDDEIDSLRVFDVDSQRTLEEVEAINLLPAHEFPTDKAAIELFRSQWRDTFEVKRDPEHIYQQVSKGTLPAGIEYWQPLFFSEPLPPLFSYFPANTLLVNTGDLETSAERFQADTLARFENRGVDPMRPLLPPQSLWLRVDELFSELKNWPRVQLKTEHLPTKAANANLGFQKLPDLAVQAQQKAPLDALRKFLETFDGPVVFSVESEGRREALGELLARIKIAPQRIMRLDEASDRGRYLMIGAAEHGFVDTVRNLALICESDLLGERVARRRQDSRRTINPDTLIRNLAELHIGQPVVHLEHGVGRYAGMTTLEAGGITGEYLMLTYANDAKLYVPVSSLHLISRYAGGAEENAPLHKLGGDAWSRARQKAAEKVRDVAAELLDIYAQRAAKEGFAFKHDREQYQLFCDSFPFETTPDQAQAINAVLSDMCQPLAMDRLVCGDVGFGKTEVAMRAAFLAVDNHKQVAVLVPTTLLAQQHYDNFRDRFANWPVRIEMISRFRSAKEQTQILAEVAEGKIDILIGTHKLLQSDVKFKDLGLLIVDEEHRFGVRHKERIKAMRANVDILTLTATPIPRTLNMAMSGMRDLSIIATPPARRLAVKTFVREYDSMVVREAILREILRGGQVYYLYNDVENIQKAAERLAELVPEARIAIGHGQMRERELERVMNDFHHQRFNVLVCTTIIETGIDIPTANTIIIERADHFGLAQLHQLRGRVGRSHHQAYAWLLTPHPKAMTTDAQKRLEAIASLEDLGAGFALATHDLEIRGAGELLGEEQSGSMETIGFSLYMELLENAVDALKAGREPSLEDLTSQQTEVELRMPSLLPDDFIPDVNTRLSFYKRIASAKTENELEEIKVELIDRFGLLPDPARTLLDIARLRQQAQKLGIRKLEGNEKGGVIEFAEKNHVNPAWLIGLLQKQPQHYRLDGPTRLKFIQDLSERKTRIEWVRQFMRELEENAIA
Sequence of UniProt P45983 (whole entry, looked up): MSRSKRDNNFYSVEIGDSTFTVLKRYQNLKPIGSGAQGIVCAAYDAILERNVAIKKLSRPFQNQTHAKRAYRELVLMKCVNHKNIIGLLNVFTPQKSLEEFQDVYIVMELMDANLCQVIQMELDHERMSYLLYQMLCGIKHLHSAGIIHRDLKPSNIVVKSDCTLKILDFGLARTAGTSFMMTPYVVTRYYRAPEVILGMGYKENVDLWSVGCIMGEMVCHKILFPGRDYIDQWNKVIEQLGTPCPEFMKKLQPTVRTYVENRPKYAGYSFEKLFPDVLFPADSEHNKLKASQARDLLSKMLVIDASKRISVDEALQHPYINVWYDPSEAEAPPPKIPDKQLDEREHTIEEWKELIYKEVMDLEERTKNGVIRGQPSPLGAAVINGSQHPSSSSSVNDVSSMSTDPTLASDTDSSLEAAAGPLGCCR
Sequence of UniProt P08908 (whole entry, looked up): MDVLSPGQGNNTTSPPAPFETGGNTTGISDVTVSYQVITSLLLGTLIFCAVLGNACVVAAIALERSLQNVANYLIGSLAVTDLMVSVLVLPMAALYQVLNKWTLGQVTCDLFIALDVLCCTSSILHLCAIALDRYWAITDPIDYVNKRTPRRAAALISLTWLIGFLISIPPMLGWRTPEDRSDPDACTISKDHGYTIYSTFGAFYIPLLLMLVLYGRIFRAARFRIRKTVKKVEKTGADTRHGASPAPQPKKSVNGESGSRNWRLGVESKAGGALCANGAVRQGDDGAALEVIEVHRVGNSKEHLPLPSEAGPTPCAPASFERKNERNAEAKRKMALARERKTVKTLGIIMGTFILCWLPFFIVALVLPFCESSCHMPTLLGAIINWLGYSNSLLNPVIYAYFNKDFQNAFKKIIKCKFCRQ
Sequence of UniProt P34913 (whole entry, looked up): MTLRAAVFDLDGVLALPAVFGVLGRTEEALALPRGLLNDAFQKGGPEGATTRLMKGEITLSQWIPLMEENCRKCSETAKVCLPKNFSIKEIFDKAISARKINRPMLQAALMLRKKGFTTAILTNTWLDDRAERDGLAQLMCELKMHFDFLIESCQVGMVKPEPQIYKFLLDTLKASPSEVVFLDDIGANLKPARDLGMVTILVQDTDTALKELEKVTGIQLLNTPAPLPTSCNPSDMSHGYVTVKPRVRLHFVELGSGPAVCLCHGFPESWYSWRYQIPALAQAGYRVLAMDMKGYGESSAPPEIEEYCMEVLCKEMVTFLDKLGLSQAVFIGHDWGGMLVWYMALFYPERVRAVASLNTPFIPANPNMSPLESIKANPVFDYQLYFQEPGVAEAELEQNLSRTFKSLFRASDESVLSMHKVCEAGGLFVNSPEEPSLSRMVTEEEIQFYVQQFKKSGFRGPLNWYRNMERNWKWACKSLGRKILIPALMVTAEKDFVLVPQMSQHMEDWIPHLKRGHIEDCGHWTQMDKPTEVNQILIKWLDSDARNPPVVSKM

The Ki of `O=P(O)(O)CC[C@@H](CO)NCc1c[nH]c2c(O)nc(O)nc12` is reported as 0.9 ± 0.1 µM (Uncharacterized protein; IMP formation, uncompetitive inhibitor; pH 8.3, 37 °C, together with: hypoxanthine 120 µM, PRPP 1 mM).
With `O=C(c1ccc(NCCF)cc1)C1CCN(C2Cc3ccccc3CC2O)CC1` (single isomer, unassigned; (+)) the Ki was 0.00231 µM (Vesicular acetylcholine transporter (SLC18A3, Homo sapiens, UniProt Q16572); ligand displacement, radioligand).
The Ki of `CCCCCCCCN=C1SC[C@@H]2[C@@H](O)[C@H](O)[C@@H](O)[C@@H](CCCCCCCC)N12` is reported as > 2000 µM (beta-glucosidase (almond); competitive inhibitor; together with: p-nitrophenyl glucopyranoside).
For `COc1cccc(/C=C/C(=N\NC(N)=O)c2ccccc2)c1`, the Ki was 0.0011 ± 1.3e-05 µM (cathepsin L; enzyme activity, competitive inhibitor; goat liver enzyme; pH 6.0, together with: Z-Phe-Arg-4-methoxy-β-naphthylamide).
`Nc1ncnc2c(CN3C[C@H](CSC4CCCCC4)[C@@H](O)C3)c[nH]c12` gave a Ki of 0.0056 ± 0.0006 µM (MTA/SAH nucleosidase (Campylobacter jejuni subsp. jejuni, UniProt Z9IB28FKP7); inhibitor; pH 7.4, 25 °C, together with: MTA 1 mM).
`Fc1cc(CN2CCOCC2)ccc1OCCCN1CCN(c2cccc3sccc23)CC1` gave a Ki of 0.304 µM (HTR6; ligand displacement, radioligand).
`COc1cccc(/C=C/C(=O)c2ccccc2)c1` gave a Ki of 0.0035 ± 8e-05 µM (cathepsin L; enzyme activity, competitive inhibitor; goat liver enzyme; pH 6.0, together with: Z-Phe-Arg-4-methoxy-β-naphthylamide).
For `O=C(CCCCc1ccc(OP(=O)(O)O)c(OP(=O)(O)O)c1)N1CCCCC1`, the Ki was 0.73 µM (Signal transducer and activator of transcription 5B, SH2 (STAT5B, Homo sapiens, UniProt P51692); ligand displacement, FP).
`C=C(C)[C@@H]1CC=C(C)CC1` has a Ki of 5.71 µM (chemosensory protein 5 (Mythimna separata, UniProt A0A5H2NAD7); binding, 1-NPN displacement; pH 5.0).
With `O=C(NCCc1ccc(O)cc1)C1=Cc2cc(O)c(O)cc2[C@H](c2ccc(O)c(O)c2)[C@H]1C(=O)NCCc1ccc(O)cc1` the Ki was 9.9 µM (Bifunctional epoxide hydrolase 2 (EPHX2, Homo sapiens, UniProt P34913); enzyme activity, inhibitor).
For `CN1CCN(Cc2ccc(OCCCN3CCN(c4cccc5sccc45)CC3)cc2)CC1`, the Ki was 0.314 µM (HTR6; ligand displacement, radioligand).
With `CNC(=O)C1CCN(c2cc(C)c(F)cc2NC(=O)c2ccc(-c3cc(O)ccc3C)c(C)c2)CC1` the Ki was 0.0094 µM (Tyrosine-protein kinase FRK (FRK, Homo sapiens, UniProt P42685); cell-free assay, TR-FRET).
The Ki of `COc1ccc(C2c3[nH]c4ccccc4c3CCN2Cc2cccc(F)c2)cc1` (stereo not drawn) is reported as 8.19 µM (5-hydroxytryptamine receptor 1A (HTR1A, Homo sapiens, UniProt P08908); ligand displacement, radioligand).
The Ki of `Cc1cc(OCCCN2CCN(c3cccc4sccc34)CC2)ccc1CN1CCCCC1` is reported as 0.404 µM (HTR6; ligand displacement, radioligand).
For `CCCCCCCCCCCCCCCCC1=C[C@@H](C(=O)O)[C@H]2C(=O)C(C(=O)OC)=C(CCCCCCCCCCCCCCCC)[C@H]2[C@H]1C(=O)OC`, the Ki was 2.2 µM (Tyrosine-protein phosphatase non-receptor type 2 (PTPN2, Homo sapiens, UniProt P17706); enzyme activity, inhibitor, absorbance).
For `O=Cc1ccc(-c2cn([C@@H]3O[C@H](COP(=O)(O)OP(=O)(O)O[C@H]4O[C@H](CO)[C@H](O)[C@H](O)[C@H]4O)[C@@H](O)[C@H]3O)c(=O)[nH]c2=O)s1`, the Ki was 38.8 µM (Beta-1,4-galactosyltransferase 1 (B4GALT1, Bos taurus, UniProt P08037); enzyme activity, inhibitor).
`CCOC(=O)c1nn(-c2ccccc2)cc1CN(C)[C@@H]1CCSC1` has a Ki of > 10 µM (D(3) dopamine receptor (DRD3, Homo sapiens, UniProt P35462); ligand displacement, radioligand; cell membranes).
`N=C(N)NCCC[C@@H]1NC(=O)[C@H](Cc2c[nH]c3ccccc23)NC(=O)[C@@H](CC2CCCCC2)NC(=O)[C@@H]2CCCN2C(=O)[C@@H](NC(=O)CCc2ccccc2)CCCNC1=O` gave a Cmax of 225 ng/g (C57BL/6J mice, spinal cord; subcutaneous, 1 mg/kg).
`Cc1ccccc1CO[C@@H](CO)[C@H](O)C[S@@+]1C[C@@H](O)[C@H](O)[C@H]1CO` has a Ki of 0.034 µM (Lysosomal alpha-glucosidase (GAA, Homo sapiens, UniProt P10253); enzyme activity, inhibitor, absorbance; pH 5.2).
`COc1ccccc1C1(O)CCN(CCCCCC2=C3C(C)=CC(C)=[N+]3[B-](F)(F)n3c(C)cc(C)c32)CC1` gave a Ki of 3.8 µM (Sodium- and chloride-dependent glycine transporter 2 (Homo sapiens, UniProt Q9Y345); cell-free assay, mass spectrometry).
With `COc1ccc(CCCN2CCCNCCCN(CCCCN)CCCNCCC2)cc1` the Ki was > 50 µM (KDM1A; enzyme activity, inhibitor, absorbance).
`CC(=O)NCC(=O)N[C@@H](CC(=O)O)C(=O)N[C@@H](Cc1ccc(O)cc1)C(=O)N[C@@H](CO)C(=O)N[C@@H](Cc1cnc[nH]1)C(=O)N[C@H]1CSSC[C@@H](C(=O)N[C@H](C(=O)N[C@@H](Cc2ccc(O)cc2)C(=O)N2CCC[C@H]2C(=O)N[C@@H](CC(=O)O)C(=O)N2CCC[C@H]2C(=O)N[C@@H](CCC(=O)O)C(=O)NCC(=O)NCC(=O)NCC(N)=O)[C@@H](C)O)NC(=O)[C@H](CCCCN)NC(=O)[C@H](Cc2c[nH]c3ccccc23)NC(=O)[C@H](Cc2c[nH]c3ccccc23)NC(=O)[C@@H]2CCCN2C(=O)[C@H](Cc2ccc(O)cc2)NC(=O)[C@H](Cc2ccc(O)cc2)NC(=O)[C@H](CCCNC(=N)N)NC(=O)[C@H](CC(C)C)NC(=O)[C@@H]2CCCN2C(=O)[C@H](CO)NC1=O` gave a Ki of 1.2 ± 0.9 µM (Angiotensin-converting enzyme 2 (Ace2, Mus musculus, UniProt Q8R0I0); inhibitor).
`NCc1cc(C(=O)NCCN2CCN(CCCCC3CCN(CC(=O)N4c5ccccc5NC(=O)c5ccccc54)CC3)CC2)cc(C(=O)NCCN2CCN(CCCCC3CCN(CC(=O)N4c5ccccc5NC(=O)c5ccccc54)CC3)CC2)c1` has a Ki of 0.000148 µM (CHRM2; ligand displacement, radioligand).
`CCc1noc(-c2ccc(-n3cnc(C(=O)NCc4cccs4)c3)nc2)n1` gave a Ki of > 1 µM (Alpha-synuclein, fibril (SNCA, Homo sapiens, UniProt P37840); ligand displacement, radioligand).
`COc1ccc(CCCN[C@H]2CCC[C@@H]2CN[C@H]2CCC[C@@H]2CNCCCCN[C@H]2CCC[C@@H]2CN)cc1` gave a Ki of 2.4 µM (KDM1A; enzyme activity, inhibitor).
`CCCCCCOc1ccc(C(=O)OCC[N+]2(C)CC=CCC2)cc1` (stereo not drawn) has a Ki of 0.151 µM (CHRM2; ligand displacement, radioligand; cell membranes).
The Ki of `CC[C@H](C)[C@H](NC(C)=O)C(=O)N[C@H](C(=O)N[C@H](C(=O)N[C@@H](CCCCN)C(=O)N[C@H](C=O)CC(=O)O)C(C)C)[C@@H](C)O` is reported as 34.7 µM (CASP9; enzyme activity, inhibitor, fluorescence; pH 7).
`CNC(=O)[C@@]12C[C@@H]1[C@@H](n1cnc3c(NCc4cccc(Cl)c4)nc(C#Cc4cccc(Cl)c4)nc31)[C@H](O)[C@@H]2O` has a Ki of 5.87 µM (Delta-type opioid receptor (OPRD1, Homo sapiens, UniProt P41143); ligand displacement, radioligand).
`CCC[C@@H]1[C@H](O)[C@@H](O)[C@H](O)[C@@H](CO)N1C(=S)NCc1ccccc1` gave a Ki of > 2000 µM (beta-glucosidase (almond); competitive inhibitor; together with: p-nitrophenyl glucopyranoside).
The Ki of `OC[C@H]1c2[nH]cnc2[C@H](O)[C@@H](O)[C@@H]1O` is reported as 23 ± 1 µM (sweet almond β-glucosidase; inhibitor; pH 5.2, together with: 2,4-dinitrophenyl β-D-glucopyranoside).
With `Nc1nc2c(CNCCCP(=O)(O)O)c[nH]c2c(=O)[nH]1` the Ki was 8 ± 1 µM (Uncharacterized protein; IMP formation, uncompetitive inhibitor; pH 8.3, 37 °C, together with: hypoxanthine 120 µM, PRPP 1 mM).
With `CN1CCC=C(c2nsnc2OCCCCCNC(=O)CCCCCCCCC(=O)NCCCCCOc2nsnc2C2=CCCN(C)C2)C1` the Ki was 0.00214 µM (CHRM2; ligand displacement, radioligand).
`O=c1[nH]c(O)nc2c([C@@H]3N[C@H](COP(=O)(O)O)[C@@H](O)[C@H]3O)c[nH]c12` has a Ki of 0.2 ± 0.02 µM (Uncharacterized protein; IMP formation, uncompetitive inhibitor; pH 8.3, 37 °C, together with: hypoxanthine 120 µM, PRPP 1 mM).
`CN1CCC=C(c2nsnc2OCCCN2CCN(CCCCC3CCN(CC(=O)N4c5ccccc5NC(=O)c5ccccc54)CC3)CC(N)C2)C1` (stereo not drawn) has a Ki of 0.000501 µM (CHRM2; ligand displacement, radioligand).
`[64Cu+2].c1ccc(CNCc2ccc(CN3CCCN4CCNCCCN(CC4)CC3)cc2)nc1` gave a tissue uptake of 15.2 ± 1.8 %ID/g (CXCR4; NOD/SCID mouse, U87 and U87-stb-CXCR4 xenografts, spleen; iv, 240 min, ex vivo).
The Ki of `CC(=O)N[C@@H](CC(C)C)C(=O)N[C@@H](CC(=O)O)C(=O)N[C@H](C(=O)N1CCC[C@H]1C(=O)N[C@H](C=O)CC(=O)O)C(C)C` is reported as 2.19 µM (CASP9; enzyme activity, inhibitor, fluorescence; pH 7).
`CN(C)S(=O)(=O)c1ccc(S(=O)(=O)N2CCC(n3c(=O)[nH]c4ccccc43)CC2)cc1` gave a Ki of 27 ± 1.9 µM (mfd, C-terminal domain (Escherichia coli, UniProt P30958); ATPase activity).
`C#CCOC(=O)[C@]1(C)C=C(C(=O)OC(C)(C)C)C(=O)CC1` has a Ki of 3.4 µM (Mitogen-activated protein kinase 8 (MAPK8, Homo sapiens, UniProt P45983); ligand displacement, FP).
With `CCCC/N=C1/SC[C@@H]2[C@@H](O)[C@H](O)[C@@H](O)[C@@H](CCC)N12` the Ki was 75 ± 5 µM (beta-glucosidase (almond); competitive inhibitor; together with: p-nitrophenyl glucopyranoside).
With `CCC(=O)NCc1cc(C(=O)NCCN2CCC(N3CCC(n4c(=O)[nH]c5ccccc54)CC3)CC2)cc(C(=O)NCCN2CCN(CCCCC3CCN(CC(=O)N4c5ccccc5NC(=O)c5ccccc54)CC3)CC2)c1` the Ki was 0.000363 µM (CHRM2; ligand displacement, radioligand; cell membranes).
`COc1ccc(/C=C/C(=O)c2ccccc2)cc1` has a Ki of 0.0263 ± 7e-05 µM (cathepsin L; enzyme activity, competitive inhibitor; goat liver enzyme; pH 6.0, together with: Z-Phe-Arg-4-methoxy-β-naphthylamide).
`CN1CCC=C(c2nsnc2OCCCCCN2CCN(CCCCCOc3nsnc3C3=CCCN(C)C3)CC2)C1` gave a Ki of 0.0178 µM (CHRM2; ligand displacement, radioligand).
`CNc1ccccc1C(=O)O[C@H]1[C@@H](O)[C@H](n2ccc(N)nc2=O)O[C@@H]1COP(=O)(O)OP(=O)(O)O` has a Ki of 3.7 ± 0.42 µM (Adenylate cyclase type 2 (Adcy2, Rattus norvegicus, UniProt P26769); adenylyl cyclase activity, inhibitor; Sf9 membranes; together with: 5 mM MnCl2, 100 µM forskolin).
`NC(=O)N/N=C(\C=C\c1ccc([N+](=O)[O-])cc1)c1ccccc1` has a Ki of 0.0168 ± 6e-05 µM (cathepsin L; enzyme activity, competitive inhibitor; goat liver enzyme; pH 6.0, together with: Z-Phe-Arg-4-methoxy-β-naphthylamide).
The Ki of `CNc1ccc(/C=C/c2ccc(O)cc2)cc1` is reported as 0.087 ± 0.021 µM (Alpha-synuclein, filaments (SNCA, Homo sapiens, UniProt P37840); radioligand displacement; α-synuclein filaments; together with: [3H]Me-BTA-1 4 nM).
